{"data": "Experimental data from different studies", "note": "Parts stem from different laboratories: compare values within a part only.", "UniProt P29376, sequence (whole entry, looked up)": "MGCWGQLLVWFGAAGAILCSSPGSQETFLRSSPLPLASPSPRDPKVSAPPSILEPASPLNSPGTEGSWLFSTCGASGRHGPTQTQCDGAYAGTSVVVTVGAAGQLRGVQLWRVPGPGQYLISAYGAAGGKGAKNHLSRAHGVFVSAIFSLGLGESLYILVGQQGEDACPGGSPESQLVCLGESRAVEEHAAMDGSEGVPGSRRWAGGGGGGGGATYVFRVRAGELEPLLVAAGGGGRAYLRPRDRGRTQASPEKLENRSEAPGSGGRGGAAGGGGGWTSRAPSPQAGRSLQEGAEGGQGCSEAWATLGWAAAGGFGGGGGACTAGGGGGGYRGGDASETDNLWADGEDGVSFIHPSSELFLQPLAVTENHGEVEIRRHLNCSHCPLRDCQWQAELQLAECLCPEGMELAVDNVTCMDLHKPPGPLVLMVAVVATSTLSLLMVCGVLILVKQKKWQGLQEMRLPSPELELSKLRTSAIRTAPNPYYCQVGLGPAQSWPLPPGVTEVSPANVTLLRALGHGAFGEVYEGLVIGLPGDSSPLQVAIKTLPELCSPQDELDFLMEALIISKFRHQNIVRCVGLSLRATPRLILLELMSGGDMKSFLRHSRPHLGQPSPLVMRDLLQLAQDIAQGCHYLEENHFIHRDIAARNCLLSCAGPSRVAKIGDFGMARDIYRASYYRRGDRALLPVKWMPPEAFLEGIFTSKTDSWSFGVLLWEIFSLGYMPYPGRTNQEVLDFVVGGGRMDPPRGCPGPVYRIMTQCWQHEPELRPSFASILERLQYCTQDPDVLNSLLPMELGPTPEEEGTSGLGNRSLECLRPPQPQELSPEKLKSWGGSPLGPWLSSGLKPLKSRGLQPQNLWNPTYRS", "UniProt Q16513, sequence (whole entry, looked up)": "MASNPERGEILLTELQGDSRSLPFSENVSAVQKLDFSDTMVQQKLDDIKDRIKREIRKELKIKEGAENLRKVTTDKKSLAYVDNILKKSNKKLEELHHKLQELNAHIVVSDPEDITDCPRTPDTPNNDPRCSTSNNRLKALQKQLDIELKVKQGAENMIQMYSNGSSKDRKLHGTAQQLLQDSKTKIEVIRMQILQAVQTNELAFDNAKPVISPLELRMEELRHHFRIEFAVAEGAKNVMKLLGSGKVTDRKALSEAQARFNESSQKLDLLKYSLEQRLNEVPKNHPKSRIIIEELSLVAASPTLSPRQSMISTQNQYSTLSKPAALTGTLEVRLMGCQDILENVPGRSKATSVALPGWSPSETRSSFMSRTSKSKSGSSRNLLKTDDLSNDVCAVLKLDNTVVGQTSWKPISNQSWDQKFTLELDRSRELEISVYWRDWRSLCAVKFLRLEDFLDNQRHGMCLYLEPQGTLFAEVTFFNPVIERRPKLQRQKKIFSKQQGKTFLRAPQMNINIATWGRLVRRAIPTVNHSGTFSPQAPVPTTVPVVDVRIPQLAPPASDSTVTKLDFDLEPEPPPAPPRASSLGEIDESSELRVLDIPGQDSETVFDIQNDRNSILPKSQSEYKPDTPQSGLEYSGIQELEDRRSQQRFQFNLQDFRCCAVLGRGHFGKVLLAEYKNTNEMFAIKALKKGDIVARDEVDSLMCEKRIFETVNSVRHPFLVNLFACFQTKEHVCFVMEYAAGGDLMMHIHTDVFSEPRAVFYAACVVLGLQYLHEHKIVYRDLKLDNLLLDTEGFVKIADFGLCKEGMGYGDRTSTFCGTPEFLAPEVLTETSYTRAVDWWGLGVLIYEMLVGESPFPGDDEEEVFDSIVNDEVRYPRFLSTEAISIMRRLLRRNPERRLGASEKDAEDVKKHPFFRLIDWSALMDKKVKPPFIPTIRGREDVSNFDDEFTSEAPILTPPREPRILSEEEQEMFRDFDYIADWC", "UniProt Q13153, sequence (whole entry, looked up)": "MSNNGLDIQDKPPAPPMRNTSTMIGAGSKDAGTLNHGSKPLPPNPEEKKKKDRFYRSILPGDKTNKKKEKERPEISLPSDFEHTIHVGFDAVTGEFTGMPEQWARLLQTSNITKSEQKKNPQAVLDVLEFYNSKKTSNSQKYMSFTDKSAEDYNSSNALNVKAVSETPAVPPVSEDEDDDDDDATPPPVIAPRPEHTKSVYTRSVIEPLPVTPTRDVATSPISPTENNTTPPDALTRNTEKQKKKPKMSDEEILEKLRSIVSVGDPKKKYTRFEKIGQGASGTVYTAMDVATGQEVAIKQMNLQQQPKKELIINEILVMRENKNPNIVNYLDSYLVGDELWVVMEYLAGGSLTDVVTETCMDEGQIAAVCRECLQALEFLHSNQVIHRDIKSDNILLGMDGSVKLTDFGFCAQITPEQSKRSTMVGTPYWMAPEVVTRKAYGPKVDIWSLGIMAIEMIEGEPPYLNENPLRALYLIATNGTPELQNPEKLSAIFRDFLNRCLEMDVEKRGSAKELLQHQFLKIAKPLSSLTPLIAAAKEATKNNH", "UniProt P57059, sequence (whole entry, looked up)": "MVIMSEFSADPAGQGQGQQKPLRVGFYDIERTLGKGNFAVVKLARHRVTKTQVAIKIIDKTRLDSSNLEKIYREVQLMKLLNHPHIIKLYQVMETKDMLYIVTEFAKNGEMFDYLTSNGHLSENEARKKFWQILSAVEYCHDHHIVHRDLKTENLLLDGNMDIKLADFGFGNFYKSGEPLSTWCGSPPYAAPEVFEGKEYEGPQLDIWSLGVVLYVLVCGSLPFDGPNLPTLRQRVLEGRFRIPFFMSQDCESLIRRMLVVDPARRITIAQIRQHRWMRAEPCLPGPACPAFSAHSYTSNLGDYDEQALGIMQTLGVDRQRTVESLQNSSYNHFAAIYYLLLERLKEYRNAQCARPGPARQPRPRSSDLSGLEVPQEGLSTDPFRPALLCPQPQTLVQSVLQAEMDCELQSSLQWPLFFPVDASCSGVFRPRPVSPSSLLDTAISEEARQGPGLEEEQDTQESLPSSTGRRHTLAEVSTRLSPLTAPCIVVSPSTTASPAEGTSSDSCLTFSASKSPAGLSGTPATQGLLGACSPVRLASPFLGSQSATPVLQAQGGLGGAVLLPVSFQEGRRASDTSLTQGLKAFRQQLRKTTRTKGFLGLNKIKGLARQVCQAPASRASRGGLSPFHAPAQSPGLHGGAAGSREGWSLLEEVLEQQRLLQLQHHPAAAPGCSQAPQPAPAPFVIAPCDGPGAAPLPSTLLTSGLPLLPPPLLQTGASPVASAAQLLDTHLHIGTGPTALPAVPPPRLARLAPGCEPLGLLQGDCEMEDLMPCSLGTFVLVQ"}
{"data": "Set 1", "target": "Interferon regulatory factor 5, full length, phosphomimetic (IRF5, Homo sapiens, UniProt Q13568-2, residues 1-514, K96S/S451D/S453D/S456D/S462D)", "technique": "protein-binding microarray", "molecule type": "double-stranded DNA, one strand shown", "medium": "in vitro", "concentration": "250 nM", "notes": "60-bp whole probe", "added": "salmon DNA 0.4 mg/ml", "reference": "random background probes", "direction": "higher = stronger binding", "all sequences stand within": "GCCTAGCAC … GTGCTAGGTCTTGATTCGCTTGACGCTGCTG"}
{"Oligonucleotide": "TTAGAATTGAGTCTCGATTA", "log fluorescence [z-score]": 0.938}
{"Oligonucleotide": "GTAGGTATCCTTCTCCTTTA", "log fluorescence [z-score]": -0.000641}
{"Oligonucleotide": "TTAGCTATCAGTTTCGATTA", "log fluorescence [z-score]": 9.62}
{"Oligonucleotide": "AGGAAAGTGTTTCTCAACCA", "log fluorescence [z-score]": 0.406}
{"Oligonucleotide": "TCATATCTAAGATTCTAACT", "log fluorescence [z-score]": 0.439}
{"Oligonucleotide": "TCATTTCTAAAACTCTTACT", "log fluorescence [z-score]": 0.944}
{"Oligonucleotide": "TCAAATCTCCCATTATAACT", "log fluorescence [z-score]": 0.491}
{"Oligonucleotide": "TTTCATTTTTTTTCATCATT", "log fluorescence [z-score]": 8.92}
{"data": "Set 2", "Structure (SMILES)": "N#CC1(c2ccccn2)CCN(Cc2cc(C(=O)N3CCCC3)c(=O)n3ccccc23)CC1", "concentration": "1 µM"}
{"target": "Serine/threonine-protein kinase PAK 1 (PAK1, Homo sapiens, UniProt Q13153)", "assay": "cell-free assay, competition with immobilised ligand", "remaining binding [%]": 100}
{"target": "Serine/threonine-protein kinase N2 (PKN2, Homo sapiens, UniProt Q16513)", "assay": "cell-free assay, competition with immobilised ligand", "remaining binding [%]": 88}
{"target": "Serine/threonine-protein kinase SIK1 (SIK1, Homo sapiens, UniProt P57059)", "assay": "competition binding", "remaining binding [%]": 100}
{"target": "Leukocyte tyrosine kinase receptor (LTK, Homo sapiens, UniProt P29376)", "assay": "cell-free assay, competition with immobilised ligand", "remaining binding [%]": 90}
{"data": "Set 3", "target": "NUAK family SNF1-like kinase 2 (NUAK2, Homo sapiens, UniProt Q9H093)", "read-out": "enzyme activity", "action": "inhibitor", "concentration": "0.5 µM", "reference": "control", "Residues (Q9H093 1-628)": "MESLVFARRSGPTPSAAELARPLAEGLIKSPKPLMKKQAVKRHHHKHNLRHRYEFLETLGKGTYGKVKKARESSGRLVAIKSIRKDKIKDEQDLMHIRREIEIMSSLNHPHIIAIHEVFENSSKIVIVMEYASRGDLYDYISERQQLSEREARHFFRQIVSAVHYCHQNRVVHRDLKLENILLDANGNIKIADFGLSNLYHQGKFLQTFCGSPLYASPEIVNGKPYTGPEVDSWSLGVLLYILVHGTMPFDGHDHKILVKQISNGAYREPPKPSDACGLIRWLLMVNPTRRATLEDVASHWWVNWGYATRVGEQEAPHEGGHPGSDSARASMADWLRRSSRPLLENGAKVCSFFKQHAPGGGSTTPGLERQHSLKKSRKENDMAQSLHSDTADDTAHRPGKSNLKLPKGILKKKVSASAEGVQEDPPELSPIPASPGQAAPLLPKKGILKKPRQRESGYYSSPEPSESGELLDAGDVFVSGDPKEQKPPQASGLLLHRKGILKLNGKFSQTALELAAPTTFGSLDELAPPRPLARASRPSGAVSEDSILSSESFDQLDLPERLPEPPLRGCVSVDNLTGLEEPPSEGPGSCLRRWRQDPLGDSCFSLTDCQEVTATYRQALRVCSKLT"}
{"Structure (SMILES)": "O=C1NC(=O)c2c1c1c3ccccc3[nH]c1n1cncc21", "remaining activity": "80.1%"}
{"Structure (SMILES)": "COc1ccc2c(c1)c(C1=C(c3c[nH]c4ccccc34)C(=O)NC1=O)cn2CCCN(C)C", "remaining activity": "81%"}
{"Structure (SMILES)": "O=C1Nc2ccc(Br)cc2/C1=C/c1cc2c([nH]1)CCCC2", "remaining activity": "133%"}
{"Structure (SMILES)": "O=c1cc(N2CCOCC2)oc2c(-c3ccccc3)cccc12", "remaining activity": "95.1%"}
{"Structure (SMILES)": "CCCCc1c(-c2ccc(OC)cc2)[nH]c2nccnc12", "remaining activity": "68%"}
{"Structure (SMILES)": "c1ccc(-c2n[nH]c3c2oc2ccccc23)cc1", "remaining activity": "95.2%"}
{"Structure (SMILES)": "CN1CCN(c2ccc3nc(-c4c(N)c5c(F)cccc5[nH]c4=O)[nH]c3c2)CC1", "remaining activity": "60.2%"}
{"data": "Set 4", "target": "Centromere-binding protein 1, full length, N-terminal tag (CBF1, Saccharomyces cerevisiae, UniProt P17106, residues 1-351)", "technique": "protein-binding microarray", "molecule type": "double-stranded DNA, one strand shown", "medium": "in vitro", "concentration": "0.8 µM", "notes": "whole 60-bp probe, no competitor", "direction": "higher = stronger binding", "UniProt P17106, sequence (whole entry, looked up)": "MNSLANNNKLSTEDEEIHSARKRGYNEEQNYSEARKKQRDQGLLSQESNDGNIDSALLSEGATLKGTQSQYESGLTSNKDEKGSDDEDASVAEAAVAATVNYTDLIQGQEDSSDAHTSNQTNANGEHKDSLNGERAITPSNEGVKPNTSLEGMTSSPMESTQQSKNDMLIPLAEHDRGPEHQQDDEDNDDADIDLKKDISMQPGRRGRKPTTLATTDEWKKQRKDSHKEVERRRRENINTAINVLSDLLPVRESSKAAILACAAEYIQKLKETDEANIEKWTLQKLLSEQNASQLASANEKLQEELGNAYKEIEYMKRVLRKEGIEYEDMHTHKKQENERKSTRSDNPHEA"}
{"Oligonucleotide": "GAATTATCTGTTCATCAGATGGTCAAGCAAGGGTAGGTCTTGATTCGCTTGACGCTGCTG", "fluorescence intensity": "577 a.u."}
{"Oligonucleotide": "GAATGTGCGTCGTGTGACGTGATATTAATATAGTAGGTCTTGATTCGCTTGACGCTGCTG", "fluorescence intensity": "1840 a.u."}
{"Oligonucleotide": "CTAACTCCTTCGAAACACGTTCCAAAGAGTTATTTCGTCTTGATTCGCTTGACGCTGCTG", "fluorescence intensity": "529 a.u."}
{"Oligonucleotide": "CTAGTTCTCTTTCAGGAGGTGGTGTTAAAAAAATTCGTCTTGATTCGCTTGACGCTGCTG", "fluorescence intensity": "546 a.u."}
{"Oligonucleotide": "GAATTATATGTGTATTACGTGATATACAGTGACTAGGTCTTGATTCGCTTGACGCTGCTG", "fluorescence intensity": "613 a.u."}
{"Oligonucleotide": "GAATTTCGGTGACATCAGTTGAAAGTAGCAGCGTAGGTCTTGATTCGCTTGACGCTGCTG", "fluorescence intensity": "542 a.u."}
{"Oligonucleotide": "GAAATCGTTCATCTCCTCGTGTTTTGGGGAGGATAGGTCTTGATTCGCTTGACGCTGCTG", "fluorescence intensity": "580 a.u."}
{"Oligonucleotide": "CTAAATGTGTTCCGCACCGTCACAAAGTGTTTTTTCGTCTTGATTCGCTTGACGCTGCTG", "fluorescence intensity": "496 a.u."}
{"note": "Repeated from above (set 3):"}
{"Structure (SMILES)": "O=C1Nc2ccc(Br)cc2/C1=C/c1cc2c([nH]1)CCCC2", "remaining activity": "133%"}
{"Structure (SMILES)": "O=c1cc(N2CCOCC2)oc2c(-c3ccccc3)cccc12", "remaining activity": "95.1%"}
{"Structure (SMILES)": "CCCCc1c(-c2ccc(OC)cc2)[nH]c2nccnc12", "remaining activity": "68%"}
{"Structure (SMILES)": "c1ccc(-c2n[nH]c3c2oc2ccccc23)cc1", "remaining activity": "95.2%"}
